Assay results from different studies.
Every numbered part comes from another study and shows a few of its results, in no order.
Sequence of UniProt Q9UPE1 (whole entry, looked up): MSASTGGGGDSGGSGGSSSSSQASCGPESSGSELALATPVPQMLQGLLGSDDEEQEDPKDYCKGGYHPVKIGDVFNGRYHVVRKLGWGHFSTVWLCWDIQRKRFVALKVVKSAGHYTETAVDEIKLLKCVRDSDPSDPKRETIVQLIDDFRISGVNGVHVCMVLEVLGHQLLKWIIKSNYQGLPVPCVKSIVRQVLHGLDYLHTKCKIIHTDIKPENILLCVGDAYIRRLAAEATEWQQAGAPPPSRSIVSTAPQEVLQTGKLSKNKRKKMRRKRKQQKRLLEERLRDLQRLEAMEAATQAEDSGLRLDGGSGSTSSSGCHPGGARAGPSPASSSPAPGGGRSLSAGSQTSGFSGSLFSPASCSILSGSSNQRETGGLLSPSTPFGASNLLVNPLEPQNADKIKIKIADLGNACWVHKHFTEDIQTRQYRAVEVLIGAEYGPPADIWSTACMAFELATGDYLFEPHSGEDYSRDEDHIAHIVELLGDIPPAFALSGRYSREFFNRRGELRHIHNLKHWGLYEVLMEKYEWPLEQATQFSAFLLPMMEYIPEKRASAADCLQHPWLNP
Sequence of UniProt P22455 (whole entry, looked up): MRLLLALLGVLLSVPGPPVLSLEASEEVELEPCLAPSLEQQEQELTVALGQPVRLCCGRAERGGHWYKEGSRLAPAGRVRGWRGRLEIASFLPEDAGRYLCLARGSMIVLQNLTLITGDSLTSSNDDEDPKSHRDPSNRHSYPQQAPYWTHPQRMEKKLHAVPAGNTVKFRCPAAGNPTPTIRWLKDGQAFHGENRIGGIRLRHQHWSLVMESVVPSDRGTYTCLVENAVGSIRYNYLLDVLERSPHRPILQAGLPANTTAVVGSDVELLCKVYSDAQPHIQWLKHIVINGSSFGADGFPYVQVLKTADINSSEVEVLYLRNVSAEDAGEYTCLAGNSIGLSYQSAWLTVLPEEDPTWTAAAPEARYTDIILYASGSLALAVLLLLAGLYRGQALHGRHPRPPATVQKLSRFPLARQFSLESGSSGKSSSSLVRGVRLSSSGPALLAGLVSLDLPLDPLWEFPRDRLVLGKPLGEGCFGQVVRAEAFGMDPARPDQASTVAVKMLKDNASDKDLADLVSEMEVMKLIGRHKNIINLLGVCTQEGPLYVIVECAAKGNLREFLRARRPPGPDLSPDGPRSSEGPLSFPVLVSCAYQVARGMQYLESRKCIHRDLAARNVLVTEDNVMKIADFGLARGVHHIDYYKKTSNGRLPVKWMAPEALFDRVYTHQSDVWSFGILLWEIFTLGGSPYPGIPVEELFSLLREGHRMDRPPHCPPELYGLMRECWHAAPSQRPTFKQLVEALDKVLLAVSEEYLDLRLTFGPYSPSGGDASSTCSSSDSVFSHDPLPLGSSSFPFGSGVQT
Sequence of UniProt Q15375 (whole entry, looked up): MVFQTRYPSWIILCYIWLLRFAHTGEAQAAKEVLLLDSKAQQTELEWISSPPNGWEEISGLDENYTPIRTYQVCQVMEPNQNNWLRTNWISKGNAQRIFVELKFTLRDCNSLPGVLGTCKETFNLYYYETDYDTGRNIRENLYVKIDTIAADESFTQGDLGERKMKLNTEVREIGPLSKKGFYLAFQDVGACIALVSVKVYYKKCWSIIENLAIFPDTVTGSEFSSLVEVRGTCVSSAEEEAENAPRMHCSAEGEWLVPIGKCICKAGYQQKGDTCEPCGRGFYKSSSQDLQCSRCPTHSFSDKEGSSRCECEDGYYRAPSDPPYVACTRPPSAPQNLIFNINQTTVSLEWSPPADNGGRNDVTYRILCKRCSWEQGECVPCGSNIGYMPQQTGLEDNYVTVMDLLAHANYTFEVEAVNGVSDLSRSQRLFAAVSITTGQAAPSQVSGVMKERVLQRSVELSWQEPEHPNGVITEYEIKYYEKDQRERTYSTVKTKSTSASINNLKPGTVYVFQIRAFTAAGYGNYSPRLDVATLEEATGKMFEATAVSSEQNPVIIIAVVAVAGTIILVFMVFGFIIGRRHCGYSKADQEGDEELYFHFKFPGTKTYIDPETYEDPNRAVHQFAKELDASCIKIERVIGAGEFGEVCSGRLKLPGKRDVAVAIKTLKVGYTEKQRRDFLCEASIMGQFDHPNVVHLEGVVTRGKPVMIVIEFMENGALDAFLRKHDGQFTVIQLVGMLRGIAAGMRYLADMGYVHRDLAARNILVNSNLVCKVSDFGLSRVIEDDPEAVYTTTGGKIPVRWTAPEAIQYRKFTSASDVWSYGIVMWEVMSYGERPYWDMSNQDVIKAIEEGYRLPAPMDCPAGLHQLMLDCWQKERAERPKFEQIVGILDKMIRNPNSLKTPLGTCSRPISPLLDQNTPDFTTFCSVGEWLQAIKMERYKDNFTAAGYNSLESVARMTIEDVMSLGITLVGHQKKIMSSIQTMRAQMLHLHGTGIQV
Sequence of UniProt Q02156 (whole entry, looked up): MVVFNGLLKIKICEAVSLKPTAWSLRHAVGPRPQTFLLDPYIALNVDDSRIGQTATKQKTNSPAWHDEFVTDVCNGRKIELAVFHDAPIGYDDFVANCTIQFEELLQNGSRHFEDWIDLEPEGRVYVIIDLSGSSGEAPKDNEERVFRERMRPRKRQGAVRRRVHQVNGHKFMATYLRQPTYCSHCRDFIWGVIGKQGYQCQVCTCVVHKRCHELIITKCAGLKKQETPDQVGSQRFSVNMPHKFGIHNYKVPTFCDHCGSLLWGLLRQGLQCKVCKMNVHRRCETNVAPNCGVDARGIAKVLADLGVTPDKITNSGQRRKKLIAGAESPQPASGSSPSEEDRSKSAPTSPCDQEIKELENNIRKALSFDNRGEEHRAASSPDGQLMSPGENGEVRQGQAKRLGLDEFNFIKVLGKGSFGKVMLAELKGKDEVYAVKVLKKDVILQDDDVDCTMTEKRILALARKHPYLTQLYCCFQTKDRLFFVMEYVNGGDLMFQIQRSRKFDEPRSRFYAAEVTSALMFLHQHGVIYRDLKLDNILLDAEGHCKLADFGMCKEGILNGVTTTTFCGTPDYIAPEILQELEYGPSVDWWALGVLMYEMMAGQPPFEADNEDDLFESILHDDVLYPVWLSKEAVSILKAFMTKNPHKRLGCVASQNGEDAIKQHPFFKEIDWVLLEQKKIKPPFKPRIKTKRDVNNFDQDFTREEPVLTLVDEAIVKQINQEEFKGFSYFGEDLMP
Sequence of UniProt Q13557 (whole entry, looked up): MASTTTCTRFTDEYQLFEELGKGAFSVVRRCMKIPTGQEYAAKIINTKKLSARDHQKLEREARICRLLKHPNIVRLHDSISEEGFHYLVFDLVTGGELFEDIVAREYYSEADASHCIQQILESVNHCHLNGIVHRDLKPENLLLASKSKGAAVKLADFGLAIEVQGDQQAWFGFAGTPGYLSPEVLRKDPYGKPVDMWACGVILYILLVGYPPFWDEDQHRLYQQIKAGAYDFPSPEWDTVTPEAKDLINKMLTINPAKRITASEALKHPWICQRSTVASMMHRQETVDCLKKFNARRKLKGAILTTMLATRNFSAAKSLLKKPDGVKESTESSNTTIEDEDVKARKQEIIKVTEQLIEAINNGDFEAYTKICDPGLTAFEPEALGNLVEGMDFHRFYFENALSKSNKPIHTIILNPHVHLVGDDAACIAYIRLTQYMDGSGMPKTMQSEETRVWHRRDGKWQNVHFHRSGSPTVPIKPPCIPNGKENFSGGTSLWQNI
Sequence of UniProt Q13976 (whole entry, looked up): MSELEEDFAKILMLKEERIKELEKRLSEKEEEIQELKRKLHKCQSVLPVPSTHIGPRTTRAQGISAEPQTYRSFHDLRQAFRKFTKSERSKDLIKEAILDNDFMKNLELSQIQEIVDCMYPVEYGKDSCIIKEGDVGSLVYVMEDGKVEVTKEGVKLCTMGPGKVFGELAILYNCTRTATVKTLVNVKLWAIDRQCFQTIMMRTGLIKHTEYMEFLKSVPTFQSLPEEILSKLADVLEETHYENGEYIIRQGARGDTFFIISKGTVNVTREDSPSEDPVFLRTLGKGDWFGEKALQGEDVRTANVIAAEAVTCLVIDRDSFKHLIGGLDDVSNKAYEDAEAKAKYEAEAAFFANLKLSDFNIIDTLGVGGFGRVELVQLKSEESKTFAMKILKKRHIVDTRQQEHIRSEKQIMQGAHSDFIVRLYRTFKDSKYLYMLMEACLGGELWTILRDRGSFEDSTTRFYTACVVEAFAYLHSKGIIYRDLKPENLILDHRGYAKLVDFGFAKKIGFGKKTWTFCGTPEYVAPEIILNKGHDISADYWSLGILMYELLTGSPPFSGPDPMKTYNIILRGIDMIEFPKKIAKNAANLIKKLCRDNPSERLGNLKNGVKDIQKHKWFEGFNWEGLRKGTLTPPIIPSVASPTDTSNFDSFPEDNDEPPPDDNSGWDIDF

Block 1
Target: Beta-1 adrenergic receptor (ADRB1, Homo sapiens, UniProt P08588)
Sequence of UniProt P08588 (whole entry, looked up): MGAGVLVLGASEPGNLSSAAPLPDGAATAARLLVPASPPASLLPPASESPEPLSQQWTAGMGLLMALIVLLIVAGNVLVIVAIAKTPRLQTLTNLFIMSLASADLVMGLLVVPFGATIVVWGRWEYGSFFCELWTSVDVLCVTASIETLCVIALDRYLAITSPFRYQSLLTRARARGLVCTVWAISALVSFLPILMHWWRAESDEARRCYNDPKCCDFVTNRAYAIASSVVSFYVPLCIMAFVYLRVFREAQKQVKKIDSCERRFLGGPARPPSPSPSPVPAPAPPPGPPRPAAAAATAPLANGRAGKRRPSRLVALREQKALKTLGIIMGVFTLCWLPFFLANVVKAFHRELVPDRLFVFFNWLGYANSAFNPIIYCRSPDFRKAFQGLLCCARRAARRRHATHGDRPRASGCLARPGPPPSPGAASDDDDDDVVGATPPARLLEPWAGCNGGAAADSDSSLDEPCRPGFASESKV
Action: antagonist
Structure (SMILES)	IC50 [µM]
O=c1oc2ccccc2cc1-c1nc2c(s1)CCc1ccccc1-2	≥ 100
Cc1noc2c(N3CCNC(=O)C3)cc(-c3cccc(C(F)(F)F)c3)nc12	≥ 100
Cc1cc(-c2cc(-c3cccc(C(F)(F)F)c3)nc3c(C)noc23)ccn1	≥ 100
Cc1nn2cc(CCNCC3(O)CNCCOC3)nc2s1 (stereo not drawn)	≥ 100
O=C(NC1CCN(c2cc(-c3ccccc3)n[nH]2)CC1)c1ccc2ccccc2n1	≥ 100
COc1ccccc1N1CCN(C(=O)C[C@@H]2O[C@H](CNC(=O)c3ccccc3)[C@@H](O)[C@H]2O)CC1	≥ 100
Cc1nc(N)ncc1-c1nc(N2CCOCC2)c2sc(C(C)(C)O)cc2n1	≥ 100
COc1ccccc1N1CCN(C(=O)c2ccc3[nH]c4c(c3c2)CCCC4)CC1	≥ 100
Cn1cc(-c2ccc3ncc(-c4cccc(NC5CNC5)n4)n3c2)cn1	≥ 100
Fc1ccc(NC(=S)N[C@H]2CO[C@H]3[C@@H]2OC[C@@H]3n2nnnc2Oc2ccc(-n3cncn3)cc2)cc1	≥ 100
Cc1occc1-c1nnc(SCc2cn3cccc(C)c3n2)o1	≥ 100
COc1ccccc1N1CCN(CC[C@@H]2CC[C@H](O)[C@@H](C(=O)NC3CCCCC3)O2)CC1	≥ 100
CCN1C(=O)COC[C@@H]1[C@H](O)c1ccc(NC(=O)c2cccs2)cc1	≥ 100
Cn1ccc(Nc2nccc3c(=O)cc(-c4cn[nH]c4)oc23)n1	≥ 100
OC(c1nc(Nc2cccc(N3CCOCC3)c2)n[nH]1)C1CC1 (stereo not drawn)	≥ 100
c1ccc(CCCc2noc(-c3ccc(N4CCCNCC4)nc3)n2)cc1	≥ 100
Cc1nc(C2CC(O)C2)cc(N2CC(N3CCOCC3)C2)n1 (stereo not drawn)	≥ 100

Block 2
Target: Megakaryocyte-associated tyrosine-protein kinase (MATK, Homo sapiens, UniProt P42679)
Observed: enzyme activity
Action: inhibitor
Tested at: 0.5 µM
Relative to: control
Target sequence (P42679 1-507): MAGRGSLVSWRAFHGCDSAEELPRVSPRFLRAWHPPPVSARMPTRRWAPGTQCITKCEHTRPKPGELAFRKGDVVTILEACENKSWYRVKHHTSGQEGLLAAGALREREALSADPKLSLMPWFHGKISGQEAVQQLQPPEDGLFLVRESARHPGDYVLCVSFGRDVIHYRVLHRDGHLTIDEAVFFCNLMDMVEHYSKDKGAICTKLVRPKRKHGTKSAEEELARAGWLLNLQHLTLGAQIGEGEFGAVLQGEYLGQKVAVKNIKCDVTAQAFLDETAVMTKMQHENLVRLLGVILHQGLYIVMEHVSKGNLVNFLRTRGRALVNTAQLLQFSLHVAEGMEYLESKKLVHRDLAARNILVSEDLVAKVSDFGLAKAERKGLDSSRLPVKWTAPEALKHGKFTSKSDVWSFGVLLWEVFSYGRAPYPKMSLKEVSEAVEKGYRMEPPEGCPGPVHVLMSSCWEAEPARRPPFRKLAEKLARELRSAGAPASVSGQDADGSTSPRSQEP
SMILES	remaining activity
Cc1ccc(NC2=CC(=O)c3sc(C)nc3C2=O)cc1	88.3%
Cc1cc(Nc2nc(-c3ccccc3)nc3ccccc23)n[nH]1	96.1%
O=S(=O)(NCCNC/C=C/c1ccc(Br)cc1)c1cccc2cnccc12	96.1%
Cc1cncc2cccc(S(=O)(=O)N3CCCN(C(=O)CN)C[C@@H]3C)c12	94.4%
Nc1ncnc2c1cnn2-c1ccccc1	89.9%
CC(C)(C)n1nc(Cc2cccc3ccccc23)c2c(N)ncnc21	93%
Oc1ccc(Nc2nc(-c3ccc(Cl)cc3)cs2)cc1	95.5%
Nc1nccc(-c2c(-c3ccc(F)cc3)ncn2C2CCNCC2)n1	99.5%
O=C1Cc2c([nH]c3ccc([N+](=O)[O-])cc23)-c2ccccc2N1	98.9%
N#CC(=C(N)Sc1ccc(N)cc1)c1ccccc1C(F)(F)F	90.7%
CCCC(=O)Oc1ccc2[nH]c(C(=O)c3cc4ccccc4[nH]3)cc2c1	93.4%

Block 3
SMILES: CC(=O)N[C@@H](Cc1c[nH]c2ccccc12)C(=O)N[C@@H](CCC(=O)C=[N+]=[N-])C(=O)OC(C)C
Dose: dose not given
Relative to: vehicle
technique	refers to	species	medium	log2 fold change
	isobutyrylcarnitine	mouse, EL4 tumour	tumour	-0.332
	sucrose	mouse, EL4 tumour-bearing	EL4 tumour	1.7
	pyruvate	mouse, EL4 tumour-bearing	EL4 tumour	-0.339
	glutamate	mouse, EL4 tumour-bearing	EL4 tumour	-0.0667
	pyridoxal	mouse, EL4 tumour-bearing	EL4 tumour	0.352
	CoA-glutathione*	mouse, EL4 tumour-bearing	EL4 tumour	-1.29
metabolomics	adenosine 3',5'-diphosphate	mouse	EL4 tumour	0.241
metabolomics	ribulose/xylulose 5-phosphate	mouse	EL4 tumour	1.58
	cysteine	mouse, EL4 tumour-bearing	EL4 tumour	-0.401
	valine	mouse, EL4 tumour-bearing	EL4 tumour	0.537
	1-methyladenosine	mouse, EL4 tumour-bearing	EL4 tumour	-0.395
	N-acetyl-beta-alanine	mouse, EL4 tumour-bearing	EL4 tumour	-0.0834
	gamma-glutamylthreonine	mouse, EL4 tumour-bearing	EL4 tumour	-0.261

Block 4
SMILES: O=C(NCc1ncc(C(F)(F)F)cc1Cl)c1ccc2c(c1)C1(CCS(=O)(=O)CC1)[C@@H](C1CC1)N2S(=O)(=O)c1ccc(F)cc1
Observed: cell-free assay
Technique: competition with immobilised ligand
Tested at: 1 µM
target	remaining binding [%]
Phosphatidylinositol 4-phosphate 3-kinase C2 domain-containing subunit beta (PIK3C2B, Homo sapiens, UniProt O00750)	90
Fibroblast growth factor receptor 4 (FGFR4, Homo sapiens, UniProt P22455)	100
Protein kinase C epsilon type (PRKCE, Homo sapiens, UniProt Q02156)	76
Cyclin-dependent kinase 11B (CDK11B, Homo sapiens, UniProt P21127)	100
SRSF protein kinase 3 (SRPK3, Homo sapiens, UniProt Q9UPE1)	100
5'-AMP-activated protein kinase catalytic subunit alpha-2 (PRKAA2, Homo sapiens, UniProt P54646)	100
Epidermal growth factor receptor (EGFR, Homo sapiens, UniProt P00533, del747-752/P753S)	85
Phosphatidylinositol 4,5-bisphosphate 3-kinase catalytic subunit delta isoform (PIK3CD, Homo sapiens, UniProt O00329)	67
Rho-associated protein kinase 2 (ROCK2, Homo sapiens, UniProt O75116)	93
Ephrin type-A receptor 7 (EPHA7, Homo sapiens, UniProt Q15375)	100
Calcium/calmodulin-dependent protein kinase type II subunit delta (CAMK2D, Homo sapiens, UniProt Q13557)	100
cGMP-dependent protein kinase 1 (PRKG1, Homo sapiens, UniProt Q13976)	100
Casein kinase I isoform gamma-2 (CSNK1G2, Homo sapiens, UniProt P78368)	85

Excerpt of the above (block 1):
Structure (SMILES)	IC50 [µM]
Cc1cc(-c2cc(-c3cccc(C(F)(F)F)c3)nc3c(C)noc23)ccn1	≥ 100
Cc1nn2cc(CCNCC3(O)CNCCOC3)nc2s1 (stereo not drawn)	≥ 100
O=C(NC1CCN(c2cc(-c3ccccc3)n[nH]2)CC1)c1ccc2ccccc2n1	≥ 100
COc1ccccc1N1CCN(C(=O)C[C@@H]2O[C@H](CNC(=O)c3ccccc3)[C@@H](O)[C@H]2O)CC1	≥ 100
Cc1nc(N)ncc1-c1nc(N2CCOCC2)c2sc(C(C)(C)O)cc2n1	≥ 100
COc1ccccc1N1CCN(C(=O)c2ccc3[nH]c4c(c3c2)CCCC4)CC1	≥ 100
